# Results pooled from the literature.
# Numbered parts are unrelated; each lists some results of a single study. Changes are numbered by the printed parent chain.

# Series 1
# Target: Prothrombin, mature alpha-thrombin (F2, Homo sapiens, UniProt P00734)
# Technique: aptamer microarray, sandwich
# Form: DNA with 2'F-ANA
# Medium: in vitro
# Tested at: 200 nM
# Setting: whole 15-mer aptamer, many near background
# Added: Cy3 exosite-II aptamer, 400 nM
# Reading: higher = stronger binding
# Strand: GGTTGGTGTGGTTGG
Modification,mean fluorescence intensity
2'F-ANA at 4 5 6 8 9 11 14 15,69 a.u.
2'F-ANA at 2 3 8 11,940 a.u.
2'F-ANA at 8 9 11 12 13 15,645 a.u.
2'F-ANA at 2 5 7 11 12 14,183 a.u.
2'F-ANA at 1 2 3 5 6 7 10 12 14,47.5 a.u.
2'F-ANA at 3 4 6 10,301 a.u.
2'F-ANA at 2 3 4 5 7 8 9 10 11 12 14,49.3 a.u.
2'F-ANA at 1 2 3 4 5 6 8 9 11 14,47.5 a.u.

# Series 2
# Target: CCND3, cyclin fold, Cln2 fusion (human)
# Technique: yeast growth competition, sequencing
# Medium: yeast
# Setting: weak parent motif
# Baseline: not given
# Reading: higher = stronger binding
# Starting sequence: viral docking peptide; TSVRRALFTGGSD; partner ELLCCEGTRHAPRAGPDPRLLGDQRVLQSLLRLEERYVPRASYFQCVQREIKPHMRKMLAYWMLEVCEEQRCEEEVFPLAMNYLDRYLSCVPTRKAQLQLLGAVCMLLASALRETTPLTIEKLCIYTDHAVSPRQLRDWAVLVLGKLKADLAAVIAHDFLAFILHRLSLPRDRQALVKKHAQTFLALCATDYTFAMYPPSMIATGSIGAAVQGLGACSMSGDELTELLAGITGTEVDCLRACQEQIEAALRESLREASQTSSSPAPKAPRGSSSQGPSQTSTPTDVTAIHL
Variant,normalised enrichment score
TSVRRFLFTGGSD [A6F],-0.103
TSVNRALFTGGSD [R4N],0.0323
TSWRRALFTGGSD [V3W],0.922
TSVRRQLFTGGSD [A6Q],0.206
TSVRDALFTGGSD [R5D],-0.266
TSVRRALFDGGSD [T9D],-0.0243
TSVRRASFTGGSD [L7S],-0.19
TSVCRALFTGGSD [R4C],-0.477
TSNRRALFTGGSD [V3N],-0.147
TSVRRALFTIGSD [G10I],-0.0323
TDVRRALFTGGSD [S2D],-0.193
TSVRRAYFTGGSD [L7Y],0.574
TSVRRALFTGWSD [G11W],0.0136
TSVRRALFTTGSD [G10T],-0.23

# Series 3
# Target: POU, POU domain (Salpingoeca helianthica)
# Technique: Spec-seq
# Form: double-stranded DNA, one strand shown
# Medium: in vitro
# Tested at: not given
# Setting: whole probe, mean of replicates
# Baseline: not given
# Reading: lower = stronger binding
# Shared flanks, not repeated: GAGTCGTCTCGTCAGCAC … CCGTAGAGCACTCAGGTC
# Residues (chain): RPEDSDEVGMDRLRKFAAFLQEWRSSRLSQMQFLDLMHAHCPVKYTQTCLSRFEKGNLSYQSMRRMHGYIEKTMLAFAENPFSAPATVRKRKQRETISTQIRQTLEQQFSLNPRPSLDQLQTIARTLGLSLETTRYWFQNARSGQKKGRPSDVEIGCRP
Strand,relative binding energy [ln ratio]
ATGCAGAT,1.16
TTGCTAAT,0.521
GGACTAAT,0.615
ATGCCCCA,1.37
ATTCGCAT,1.2
ATGGCGAT,1.45
GGTATAAT,0.375
ATGCCGAC,1.36

# Series 4
# Variant: R98L
# Target: ABI1, truncated, D143A, DHFR fusion (Arabidopsis thaliana)
# Technique: DHFR PCA, deep sequencing
# Medium: yeast
# Setting: methotrexate growth selection, single substitutions
# Baseline: wild-type fitted maximum
# Reading: higher = stronger binding
# Starting sequence: PYL1, truncated, DHFR fusion (Arabidopsis thaliana); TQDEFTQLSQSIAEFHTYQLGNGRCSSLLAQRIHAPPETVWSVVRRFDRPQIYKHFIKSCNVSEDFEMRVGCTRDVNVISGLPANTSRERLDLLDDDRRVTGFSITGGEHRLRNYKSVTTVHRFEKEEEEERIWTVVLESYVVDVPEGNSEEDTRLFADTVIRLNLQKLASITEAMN; partner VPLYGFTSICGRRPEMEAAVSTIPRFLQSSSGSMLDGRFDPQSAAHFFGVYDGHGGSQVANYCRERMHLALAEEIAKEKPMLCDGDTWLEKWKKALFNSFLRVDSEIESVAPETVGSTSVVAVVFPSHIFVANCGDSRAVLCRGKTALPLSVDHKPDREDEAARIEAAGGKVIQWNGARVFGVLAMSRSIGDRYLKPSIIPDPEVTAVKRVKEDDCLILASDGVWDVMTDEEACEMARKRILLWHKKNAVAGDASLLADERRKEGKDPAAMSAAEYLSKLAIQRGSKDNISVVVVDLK
added,relative binding score
(+)-ABA 0.032 µM,15%
(+)-ABA 0.0091 µM,7.8%
(+)-ABA 58 µM,84.5%
(+)-ABA 0 µM,8.97%
(+)-ABA 4.8 µM,56.7%
(+)-ABA 710 µM,105%

# Some of these lines once more (series 1):
Modification,mean fluorescence intensity
2'F-ANA at 3 4 6 10,301 a.u.
2'F-ANA at 8 9 11 12 13 15,645 a.u.
2'F-ANA at 2 5 7 11 12 14,183 a.u.
